Results pooled from the literature.
Lines come from different studies, so protocols differ.
Organism: Enterococcus faecium

Structure (SMILES)	observed	method	strain	time	temperature	setting	MIC
CNC(CC(C)C)C(=O)NC1C(=O)NC(CC(N)=O)C(=O)NC2C(=O)NC3C(=O)NC(C(=O)NC(C(=O)NCCCNC(=N)N)c4cc(O)cc(O)c4-c4cc3ccc4O)C(O)c3ccc(c(Cl)c3)Oc3cc2cc(c3OC2OC(CO)C(O)C(O)C2OC2CC(C)(N)C(O)C(C)O2)Oc2ccc(cc2Cl)C1O (stereo not shown)	–	–	ATCC BAA-2317 VanA	–	–	−NaH2PO4	4 µg/mL
CN(C)c1cc(CN2CCCCCC2)c(O)c2c1C[C@H]1C[C@H]3[C@H](N(C)C)C(O)=C(C(N)=O)C(=O)[C@@]3(O)C(O)=C1C2=O	–	–	494, Tet M and Tet L	–	–	–	1 µg/mL
CC1CCN(CCCN2/C(=C/c3cc(/C=C/c4c[nH]c5ccccc45)[n+](C)c4ccccc34)Sc3ccccc32)CC1	microbial growth	broth dilution	ATCC49624	–	–	–	32 µg/mL
CNC(CC(C)C)C(=O)NC1C(=O)NC(CC(N)=O)C(=O)NC2C(=O)NC3C(=O)NC(C(=O)NC(C(=O)NCCCCCCNC(=N)N)c4cc(O)cc(O)c4-c4cc3ccc4O)C(O)c3ccc(c(Cl)c3)Oc3cc2cc(c3OC2OC(CO)C(O)C(O)C2OC2CC(C)(N)C(O)C(C)O2)Oc2ccc(cc2Cl)C1O (stereo not shown)	–	broth microdilution	ATCC BAA-2317 VanA	–	–	–	4 µg/mL
CN(C)c1cc(CNC2CCCC2)c(O)c2c1C[C@H]1C[C@H]3[C@H](N(C)C)C(O)=C(C(N)=O)C(=O)[C@@]3(O)C(O)=C1C2=O	–	–	494, Tet M and Tet L	–	–	–	0.5 µg/mL
CC[P+](CC)(CC)[Au-][S][C@@H]1O[C@H](COC(C)=O)[C@@H](OC(C)=O)[C@H](OC(C)=O)[C@H]1NC(=O)C(Cl)(Cl)Cl	–	–	ATCC 700221	–	–	–	0.08 µM
CNC(CC(C)C)C(=O)NC1C(=O)NC(CC(N)=O)C(=O)NC2C(=O)NC3C(=O)NC(C(=O)NC(C(=O)NCCCNC(=N)N)c4cc(O)cc(O)c4-c4cc3ccc4O)C(O)c3ccc(c(Cl)c3)Oc3cc2cc(c3OC2OC(CO)C(O)C(O)C2OC2CC(C)(NCc3ccc(-c4ccc(Cl)cc4)cc3)C(O)C(C)O2)Oc2ccc(cc2Cl)C1O (stereo not shown)	–	–	ATCC BAA-2317 VanA	–	–	−NaH2PO4	0.3 µg/mL
CCn1cc[n+](CC)[c]1[Au-]([Cl])([Cl])[Cl]	–	broth dilution	DSM 20477	20 h	37 °C	–	2.3 µM
CC(C)C[C@H](NC(=O)[C@H](CC(N)=O)NC(=O)[C@H](CCCNC(=N)N)NC(=O)[C@@H](CC(C)C)NC(=O)[C@H](Cc1ccc(C(F)(F)F)cc1)NC(=O)[C@H](CC(=O)O)NC(=O)[C@H](CCCCN)NC(=O)[C@@H](CC(C)C)NC(=O)[C@H](CCCNC(=N)N)NC(=O)[C@H](CCC(N)=O)NC(=O)[C@@H](NC(=O)[C@@H](CC(C)C)NC(=O)[C@H](CCCNC(=N)N)NC(=O)[C@H](CCCCN)NC(=O)[C@H](Cc1ccc2ccccc2c1)NC(=O)CN)C(C)C)C(=O)N[C@H](C(N)=O)C(C)C	–	broth microdilution	ATCC 51559	–	–	–	3.1 µM
CC1=C[C@@]2(C)C(=C(C)[C@H]3[C@@H]4C[C@H](C)C[C@H](C)[C@H]4[C@H]4Oc5ccc(cc5)C[C@]5(O)NC(=O)[C@]6(O[C@H]65)C(=O)[C@@H]2[C@@H]43)[C@H]1C	microbial growth	broth dilution	ATCC35667	–	–	–	6.3 µM
C=C(NC(=O)C(=C)NC(=O)c1csc(C2=NC3c4csc(n4)C4NC(=O)c5csc(n5)C(C(C)(O)C(C)O)NC(=O)C5CSC(=N5)C(=CC)NC(=O)C(C(C)O)NC(=O)c5csc(n5)C3(CC2)NC(=O)C(C)NC(=O)C(=C)NC(=O)C(Cc2ccccc2)NC(=O)C(C(C)CC)NC2C=Cc3c(C(C)O)cc(nc3C2O)C(=O)OC4C)n1)C(N)=O (stereo not shown)	–	broth microdilution	ATCC 12952 VRE	18 h	37 °C	–	0.011 µg/mL
CN(C)c1cc(CN)c(O)c2c1C[C@H]1C[C@H]3[C@H](N(C)C)C(O)=C(C(N)=O)C(=O)[C@@]3(O)C(O)=C1C2=O	–	–	494, Tet M and Tet L	–	–	–	> 64 µg/mL
C=C(NC(=O)C(=C)NC(=O)c1csc(C2=NC3c4csc(n4)C4NC(=O)c5csc(n5)C(C(C)(O)C(C)O)NC(=O)C5CSC(=N5)C(=CC)NC(=O)C(C(C)O)NC(=O)c5csc(n5)C3(CC2)NC(=O)C(C)NC(=O)C(=C)NC(=O)C(Cc2ccc(O)cc2)NC(=O)C(C(C)CC)NC2C=Cc3c(C(C)O)cc(nc3C2O)C(=O)OC4C)n1)C(N)=O (stereo not shown)	–	broth microdilution	ATCC 12952 VRE	18 h	37 °C	–	0.11 µg/mL
CN(Cc1cc(N(C)C)c2c(c1O)C(=O)C1=C(O)[C@]3(O)C(=O)C(C(N)=O)=C(O)[C@@H](N(C)C)[C@@H]3C[C@@H]1C2)CC(C)(C)C	–	–	494, Tet M and Tet L	–	–	–	0.25 µg/mL
CCn1cc[n+](CC)[c]1[Au-][Cl]	–	broth dilution	DSM 20477	20 h	37 °C	–	1.4 µM
CNC(CC(C)C)C(=O)NC1C(=O)NC(CC(N)=O)C(=O)NC2C(=O)NC3C(=O)NC(C(=O)NC(C(=O)NC(CCCNC(N)=O)C(=O)OC)c4cc(O)cc(O)c4-c4cc3ccc4O)C(O)c3ccc(c(Cl)c3)Oc3cc2cc(c3OC2OC(CO)C(O)C(O)C2OC2CC(C)(N)C(O)C(C)O2)Oc2ccc(cc2Cl)C1O (stereo not shown)	–	broth microdilution	ATCC BAA-2317 VanA	–	–	–	31 µg/mL
CN(C)Cc1cc(N(C)C)c2c(c1O)C(=O)C1=C(O)[C@]3(O)C(=O)C(C(N)=O)=C(O)[C@@H](N(C)C)[C@@H]3C[C@@H]1C2	–	–	494, Tet M and Tet L	–	–	–	1 µg/mL
CC[P+](CC)(CC)[Au-][S+](C[C@H]1O[C@H](O[C@H]2O[C@H](COC(C)=O)[C@@H](OC(C)=O)[C@H](OC(C)=O)[C@H]2OC(C)=O)[C@H](OC(C)=O)[C@@H](OC(C)=O)[C@@H]1OC(C)=O)[Au-][P+](CC)(CC)CC.[Cl-]	–	–	ATCC 700221	–	–	–	0.05 µM
CC(C)CNCc1cc(N(C)C)c2c(c1O)C(=O)C1=C(O)[C@]3(O)C(=O)C(C(N)=O)=C(O)[C@@H](N(C)C)[C@@H]3C[C@@H]1C2	–	–	494, Tet M and Tet L	–	–	–	1 µg/mL
CC(C)C[C@H](NC(=O)[C@H](CC(N)=O)NC(=O)[C@H](CCCNC(=N)N)NC(=O)[C@@H](CC(C)C)NC(=O)[C@H](Cc1ccc2ccccc2c1)NC(=O)[C@H](CC(=O)O)NC(=O)[C@H](CCCCN)NC(=O)[C@@H](CC(C)C)NC(=O)[C@H](CCCNC(=N)N)NC(=O)[C@H](CCC(N)=O)NC(=O)[C@@H](NC(=O)[C@@H](CC(C)C)NC(=O)[C@H](CCCNC(=N)N)NC(=O)[C@H](CCCCN)NC(=O)[C@H](Cc1ccccc1)NC(=O)CN)C(C)C)C(=O)N[C@H](C(N)=O)C(C)C	–	broth microdilution	ATCC 51559	–	–	–	3.1 µM
CN(C)c1cc(CNCC(N)=O)c(O)c2c1C[C@H]1C[C@H]3[C@H](N(C)C)C(O)=C(C(N)=O)C(=O)[C@@]3(O)C(O)=C1C2=O	–	–	494, Tet M and Tet L	–	–	–	64 µg/mL
Cc1cc(/C=C2\Sc3ccccc3N2CCCN2CCCC2)c2ccccc2[n+]1C	microbial growth	broth dilution	ATCC49624	–	–	–	32 µg/mL

Some of these lines once more:
Structure (SMILES)	observed	method	strain	time	temperature	setting	MIC
CN(Cc1cc(N(C)C)c2c(c1O)C(=O)C1=C(O)[C@]3(O)C(=O)C(C(N)=O)=C(O)[C@@H](N(C)C)[C@@H]3C[C@@H]1C2)CC(C)(C)C	–	–	494, Tet M and Tet L	–	–	–	0.25 µg/mL
CNC(CC(C)C)C(=O)NC1C(=O)NC(CC(N)=O)C(=O)NC2C(=O)NC3C(=O)NC(C(=O)NC(C(=O)NCCCNC(=N)N)c4cc(O)cc(O)c4-c4cc3ccc4O)C(O)c3ccc(c(Cl)c3)Oc3cc2cc(c3OC2OC(CO)C(O)C(O)C2OC2CC(C)(NCc3ccc(-c4ccc(Cl)cc4)cc3)C(O)C(C)O2)Oc2ccc(cc2Cl)C1O (stereo not shown)	–	–	ATCC BAA-2317 VanA	–	–	−NaH2PO4	0.3 µg/mL
CC(C)CNCc1cc(N(C)C)c2c(c1O)C(=O)C1=C(O)[C@]3(O)C(=O)C(C(N)=O)=C(O)[C@@H](N(C)C)[C@@H]3C[C@@H]1C2	–	–	494, Tet M and Tet L	–	–	–	1 µg/mL
